Experimental data collected from several papers.
A part holds a random share of what one study measured. Changes are numbered by the printed parent chain.

Study 1
Target: Sal-like protein 4, full length isoform B (SALL4, Homo sapiens, UniProt Q9UJQ4-2, residues 1-616)
Technique: universal PBM
Molecule type: double-stranded DNA, one strand shown
Sample: in vitro
Concentration: not given
Notes: 8-mer, flanks averaged, mean of replicates
Direction: higher = stronger binding
Sequence | E-score
GAGTACAA | 0.109
CAGAACAG | -0.104
CACAACAG | -0.0169
CGTGTCCC | -0.196
CAGCATAA | 0.228
GGCGTTTA | 0.0617
AGAAGATG | 0.139
ACACTAAT | 0.177
CTGCTTTA | 0.0716
AGCTGCGG | -0.351
CATCGGTC | -0.212
CTTCTTAA | 0.186
ATTCCTAA | 0.0722
ACTAAATC | 0.0489
AAATCATT | 0.303
CCCTTGAA | -0.0403
CACATCGG | -0.222
CCACATCG | -0.166

Study 2
Target: ABI1, truncated, D143A, DHFR fusion (Arabidopsis thaliana)
Technique: DHFR PCA, deep sequencing
Sample: yeast
Notes: methotrexate growth selection, single substitutions
With: (+)-ABA 17 µM
Reference: wild-type fitted maximum
Direction: higher = stronger binding
Parent: PYL1, truncated, DHFR fusion (Arabidopsis thaliana); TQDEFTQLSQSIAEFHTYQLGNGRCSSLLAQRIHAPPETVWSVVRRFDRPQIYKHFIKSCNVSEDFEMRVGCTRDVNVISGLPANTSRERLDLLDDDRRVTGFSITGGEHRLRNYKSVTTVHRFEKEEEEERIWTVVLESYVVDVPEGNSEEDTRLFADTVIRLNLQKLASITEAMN; partner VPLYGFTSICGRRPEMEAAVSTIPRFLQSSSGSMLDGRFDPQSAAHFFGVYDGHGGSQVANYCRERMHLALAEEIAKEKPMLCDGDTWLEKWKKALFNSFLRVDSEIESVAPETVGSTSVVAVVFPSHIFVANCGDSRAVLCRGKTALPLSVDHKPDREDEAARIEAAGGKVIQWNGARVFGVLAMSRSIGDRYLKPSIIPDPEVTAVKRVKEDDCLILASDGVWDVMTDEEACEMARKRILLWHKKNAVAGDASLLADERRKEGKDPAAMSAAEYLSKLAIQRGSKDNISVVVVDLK
Substitution | relative binding score [%]
G21M | 80.2
Y141T | -5.66
T160A | 39.8
S59E | 84.5
T135C | 88.1
T73D | 28.4
H16V | -10
I52L | 86.8
D48P | -9.65
V100Q | 5.7
Q2D | 89
S27F | 0.72
I162T | 8.41
L156R | 49.7
F15R | 28.9
G148M | 45
F124Y | 98.3
V145D | -2.38
Q2K | 84.1
R88Q | 87.7

Study 3
Target: RNA binding protein fox-1 homolog 2, RRM domain, GST-SBP tag (RBFOX2, Homo sapiens, UniProt O43251-10, residues 100-194)
Technique: RNA Bind-n-Seq
Molecule type: RNA
Sample: in vitro
Concentration: 365 nM
Notes: natural RNA segment, single round, ends assumed
Reference: no-protein control
Direction: higher = stronger binding
Constant ends, left off below: GGGAGUUCUACAGUCCGACGAUC … UGGAAUUCUCGGGUGCCAA
Residues (chain): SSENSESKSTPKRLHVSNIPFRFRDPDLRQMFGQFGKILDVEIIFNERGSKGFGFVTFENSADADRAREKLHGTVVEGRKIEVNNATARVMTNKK
Sequence | RBNS enrichment (R)
AUUCUGAGGUCACAUAACACAUAAAAUUAGUUUCUAUGAGUGUAUACCAUUUAAAGAAUUUUUUUUUCAGUAAAAGGGAAUAUUACAAUGUUGGAGGAGAGAUAAGUUAU | 0.539
AGCUAGGCUGUUUCUGAUAUCCAAUCAUUGGUUUAACAAUAAAGGCAAUUUGUUUAAUCAGUUAACGGAAAUUUCUUGGCUUAUGAAAGUGAAAAGUCCAGUGGUAUUGG | 0.564
UGUGCAGGUGCUGUGGUGGGAAGCACAAAGCCGCCGCUGACUCGGUUCCCCUACUUUCUGCUUCUCCAUCCACGGCCACGGGCAACUUGUCUCUUGCGCACUCCCCCAUC | 0.377
GGAAGGGACUCUAGGAGGUGGCACUGGCCCCACAGCCUCUGGGAAGUGACAGAGAUGCCUCAGCUCUAGGCUCCUGCCCUUGCUGCUCCCACCUUCCAAGCCAGUUGCAG | 0.289
UACUGAAAAAGCCAAAAUGUUUUGUUUCGUUUCUUUUUUUUUUUUUUUUUUAAAGAUAAACUUGUGUAGUUUGGAAGCAGAUUUAGAAAGAUGAACUUCACUUGGGCCAG | 0.798
CUGACAUCCACCACAGAGGACGAGUAGGGCCACCCAGGGCCAGGAGAACAGGAACAGAACUGAGCAGGGGCAGGUCUCCAAGGCAAGCCCAGCUGGUGUGACUUAGACAA | 0.382
GCGGGGCUGAGCCACCCCCACAACCCUACCUUCUUCAUCCCCUCUGUCCCGUCUGUGGCAGAGGUUUCUGGCCAGAGGACCCUUCCCGGUUCAUCUCCCCUCAUCUUCUU | 1.01
AGAAAGCACGAAAAAUUAUUUAUAAUAGUCUGGAGAAAAAACACACUGUAAUAUUUCAAGUGUAUGCAGUAGAAUGUACUGUAACUGAGCCCUUUCCCACAUGUCUAGGC | 4.32
AGUCCCAGCCUUCAUCCAUGUGAUUAAGAUCCAGGCCGCUGAAGUUCCCCAGGAAAUGAUCUUCCACUUGAGCAACCUUUUACUUGAUACGAUUUGCACCUUUCUGUUUU | 1.44
CUGAAGACCAGCAGACACCAGACUUUAAAAGUGCUUAAAUUGGAAUUUGGAAACUACAGUAAAGAAACCUUCAGAUACCAGUUCCAUCCUGAAGCCCUCUGUUGAACAAC | 0.407
UGGCUAGGCUAGUCUCGAAUUCCUGACCUCAAGUGAUCCACCCGCCUUGGCCUCUCGAAGUGCUGGGAUUACAGGCGUGAGCCACCCGCCCGGCUAUCAGCACUGUUCUG | 0.376
AUACAAAUGUUUUAGUAAAAAAGAGAAUUGUAGAUAAUACUGUCUAGGAAAAUAAGAAUUAGGUUUCUUUGAAGAAGGAAUCUUUUAUAACACCUUAACAGUCACCACUG | 0.294

Study 4
Target: Fragile X messenger ribonucleoprotein 1, C-terminal low-complexity region (Fmr1, Mus musculus, UniProt P35922)
Technique: RNA Bind-n-Seq
Molecule type: RNA
Sample: in vitro
Concentration: 200 nM
Notes: whole 134-nt RNA, ends assumed
With: 150 mM KCl
Reference: input library
Direction: higher = stronger binding
Constant ends, left off below: GGGAGUUCUACAGUCCGACGAUC … UGGAAUUCUCGGGUGUCAAGG
Sequence | log2 enrichment
AAGUCCUGUGCUACACAUCGUAUGUACCGAAUCGGGUUUUUGGGAAAAAGGGUGGGAAAGUAUUAUGUUACGCCGUUCGGAUCUGCACUU | 0.807
CACAGACAACACGCACCCACACAGACACAGAGGGAAGGCGUUGGGAUGGGGACAGGGUGCACAGCAGGGCGGGGUAGGACCCCAGCCCCU | 1.19
UCCUGUGCUACACAUCGUAUGUACCGAAUCAAACCCCCAAAUUUUUUUAAAUUUUUAAAAAAGUAUUAUGUUACGCCGUUCGGAUCUGCA | 0.495
CCUCAAGUCCUGUGCUACACAUCGUAUGUACCGAAUCGGGUUGGUUGGGUUGGAAAGUAUUAUGUUACGCCGUUCGGAUCUGCACUUCCA | 0.0103
AGUCCUGUGCUACACAUCGUAUGUACCGAAUCGGGGUUUUGGUUUUGGGUUUUGGGGAAAGUAUUAUGUUACGCCGUUCGGAUCUGCACU | 0.236
AAGUCCUGUGCUACACAUCGUAUGUACCGAAUCGGAAAAAGGUUUUUUUGGAAAGGAAAGUAUUAUGUUACGCCGUUCGGAUCUGCACUU | -1.43
CCUGUGCUACACAUCGUAUGUACCGAAUCGGGGAAAAAAAGGGGAAAAAGGGGAAAGGGGAAAGUAUUAUGUUACGCCGUUCGGAUCUGC | 0.109
UGGCCCUGGUGGCAUGCGGGGAGGAAGAGGUGGCCUCAUUGAUCGUGGUGGUCCCGGUGGAAUGUUCAGAGGUGGCCGUGGUGGAGACAG | 0.0725
UAACUUUAGAGGAGGAUCUGAUGGAUAUGGCAGUGGACGUGGAUUUGGGGAUGGCUAUAACGGGUAUGGAGGAGGACCUGGAGGUGGCAA | 0.398
CCUCAAGUCCUGUGCUACACAUCGUAUGUACCGAAUCGGGGUGGUGGGUGGGAAAGUAUUAUGUUACGCCGUUCGGAUCUGCACUUCCAG | 1.4
CAAGUCCUGUGCUACACAUCGUAUGUACCGAAUCGGUUUGGGGUUUGGGUUUGGGAAAGUAUUAUGUUACGCCGUUCGGAUCUGCACUUC | 0.0926
CAAGUCCUGUGCUACACAUCGUAUGUACCGAAUCGGGGCCCGGCCCGGGCCCGGGGAAAGUAUUAUGUUACGCCGUUCGGAUCUGCACUU | -1.19
CUCAAGUCCUGUGCUACACAUCGUAUGUACCGAAUCGGUUGGUUGGGGUUGGGAAAGUAUUAUGUUACGCCGUUCGGAUCUGCACUUCCA | 0.181
UAACUUUAGAGGAGGAUCUGAUGAAUAUGGCAGUGGACGUGGAUUUGGGGAUGGCUAUAAUGGGUAUGGAGGAGGACCUGGAGGUGGCAA | 0.307

Study 5
Target: CCNB1, cyclin fold, Cln2 fusion (human)
Technique: yeast growth competition, sequencing
Sample: yeast
Notes: weak parent motif
Reference: not given
Direction: higher = stronger binding
Parent: ORC1 docking peptide (human); PRARKRLELGNLG
Substitution | normalised enrichment score
PRARKRTELGNLG [L7T] | 0.265
PRARKGLELGNLG [R6G] | 1.47
PRARKRLFLGNLG [E8F] | 0.758
PKARKRLELGNLG [R2K] | 0.255
PRARKSLELGNLG [R6S] | 0.349
PRARPRLELGNLG [K5P] | 0.991
PRARKTLELGNLG [R6T] | 1.14
PRARKRLEEGNLG [L9E] | 0.163
PRVRKRLELGNLG [A3V] | 0.78
IRARKRLELGNLG [P1I] | 0.705
PRARKRLELGNLV [G13V] | 0.221
PRARKRLERGNLG [L9R] | 1.1
PRKRKRLELGNLG [A3K] | 0.258
PRARKRDELGNLG [L7D] | 0.434
PRARKRLELGILG [N11I] | 0.0777
PRPRKRLELGNLG [A3P] | 0.568
PRARKILELGNLG [R6I] | 0.829
PRARKMLELGNLG [R6M] | 0.812
PRHRKRLELGNLG [A3H] | 0.702
PRARKRLELGNLA [G13A] | 0.623
PRALKRLELGNLG [R4L] | 1.01
PRARKELELGNLG [R6E] | 0.873
ERARKRLELGNLG [P1E] | 0.435
PRARKRLELGNLH [G13H] | 0.852
PRARKRLELGNFG [L12F] | 0.725

Some of these lines once more (study 2):
Substitution | relative binding score [%]
R88Q | 87.7
Y141T | -5.66
L156R | 49.7
I52L | 86.8
T73D | 28.4
G21M | 80.2
T135C | 88.1
H16V | -10
Q2D | 89
F15R | 28.9
Q2K | 84.1
V145D | -2.38
S59E | 84.5
